Measured values pooled from the literature.
Each line is one published result; not all experiments were run side by side. “And” joins repeats or separate records; there may be more than shown. ± marks the error that the study gave.
HDAC6 ZnF-UBD domain: Protein deacetylase HDAC6, ZnF-UBD domain (HDAC6, Homo sapiens, UniProt Q9UBN7)
UniProt Q9UBN7, sequence (whole entry, looked up): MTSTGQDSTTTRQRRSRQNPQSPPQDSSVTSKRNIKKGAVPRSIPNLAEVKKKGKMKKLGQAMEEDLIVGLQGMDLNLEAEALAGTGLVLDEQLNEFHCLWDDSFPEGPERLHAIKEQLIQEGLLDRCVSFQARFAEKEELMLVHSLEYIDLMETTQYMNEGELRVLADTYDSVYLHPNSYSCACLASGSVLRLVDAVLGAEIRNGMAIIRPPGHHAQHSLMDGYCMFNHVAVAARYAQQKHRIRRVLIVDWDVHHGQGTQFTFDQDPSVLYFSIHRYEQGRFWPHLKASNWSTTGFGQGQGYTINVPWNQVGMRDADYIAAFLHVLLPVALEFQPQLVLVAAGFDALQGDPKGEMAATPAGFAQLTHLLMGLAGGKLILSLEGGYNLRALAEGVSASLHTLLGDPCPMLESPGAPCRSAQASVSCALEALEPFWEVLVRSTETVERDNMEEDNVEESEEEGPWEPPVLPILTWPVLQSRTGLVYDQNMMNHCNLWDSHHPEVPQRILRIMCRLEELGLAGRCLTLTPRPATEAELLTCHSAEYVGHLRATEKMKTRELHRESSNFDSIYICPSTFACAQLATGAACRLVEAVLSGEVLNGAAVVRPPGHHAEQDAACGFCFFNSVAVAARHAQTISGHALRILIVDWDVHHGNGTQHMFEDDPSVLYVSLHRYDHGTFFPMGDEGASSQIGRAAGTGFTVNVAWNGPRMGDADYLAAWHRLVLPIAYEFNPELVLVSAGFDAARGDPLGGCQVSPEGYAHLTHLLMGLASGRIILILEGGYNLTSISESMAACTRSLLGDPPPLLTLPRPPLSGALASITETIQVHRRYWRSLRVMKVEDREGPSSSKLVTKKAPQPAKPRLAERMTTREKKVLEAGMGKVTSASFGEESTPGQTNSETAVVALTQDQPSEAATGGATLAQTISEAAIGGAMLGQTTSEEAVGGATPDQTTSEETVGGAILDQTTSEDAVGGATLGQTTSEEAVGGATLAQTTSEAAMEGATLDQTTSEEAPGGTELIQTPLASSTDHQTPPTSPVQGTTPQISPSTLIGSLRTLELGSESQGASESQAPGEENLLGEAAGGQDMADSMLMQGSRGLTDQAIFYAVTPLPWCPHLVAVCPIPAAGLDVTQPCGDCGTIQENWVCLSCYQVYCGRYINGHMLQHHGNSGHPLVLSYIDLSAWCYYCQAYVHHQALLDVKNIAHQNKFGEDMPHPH

| Structure (SMILES) | target or system | assay | system | conditions | scale | quantity | value |
| --- | --- | --- | --- | --- | --- | --- | --- |
| CCOC(=O)N1C[C@@H](c2sc(N(C)C)nc2C)N[C@@H](c2ccc(F)c3ccccc23)C1 | – | shake-flask, LC-HRMS | aqueous buffer | 16 h, pH 6.8 | – | solubility | < 4 µM |
| CCC(=O)N(CCC(c1ccc2c(c1)OCO2)c1ccccc1OC)Cc1ccccc1 (stereo not drawn) | – | – | female athymic nude mouse, blood | i.p., 60 mg/kg twice daily, 14 days, group mean | – | MPV | 5.72 fL |
| CCO[C@H]1CCN(Cc2c(OC)cc(C)c3[nH]ccc23)[C@H](c2ccc(C(=O)O)cc2)C1 | – | – | healthy volunteers, plasma | oral, 200 mg single dose, geometric mean | – | total AUC(0-t) | 52300 ng·h/mL |
| Cn1cc(-c2ccc(-c3cncc(Cl)c3N3CCC4(CCNC4=O)CC3)cc2)cn1 | COLO 205 | microarray, item: MMP2 | – | concentration not given, 6 h, gene set MMP-2 | reference: untreated cells | fold change in expression | 1.71 |
| CNCCOC12CC3(C)CC(C)(CC(Cn4ncc(-c5ccc(N6CCc7cccc(C(=O)Nc8nc9ccccc9s8)c7C6)nc5C(=O)O)c4C)(C3)C1)C2 | – | – | beagle dog, male, anaesthetised | intravenous bolus, 0.03 mg/kg, 60 min | reference: baseline | heart rate change | -1% |
| N#Cc1ccc2c(c1)[C@H]1CCCN(C(=O)c3ccc4[nH]cnc4c3)[C@H]1C2 | – | – | human | 20 mg, day 15 | – | median ACTH level | 7.9 pmol/L |
| C=CC(=O)NC1CCN(c2ncc3ncnc(Nc4ccc(Oc5ccc6c(c5)ncn6C)c(C)c4)c3n2)CC1 | – | – | human, male | oral, 240 mg, treatment-related adverse event | – | participants with cough | 6.3% |
| O=c1[nH]c(=O)n([C@@H]2O[C@H](CO)[C@@H](O)[C@@H]2F)cc1CCCC[18F] | – | – | nude mice, RG2 tumour, liver | intravenous, dose not given, 2 h | – | biodistribution | 0.24 ± 0.04 %ID/g |
| C=CCN1CC(=O)N2[C@@H](Cc3ccc(O)cc3F)C(=O)N(Cc3cccc(N4CC(N5CCN(CC)CC5)C4)n3)C[C@@H]2N1C(=O)NCc1ccccc1 | – | – | advanced solid tumour patients | oral, 15 mg twice daily, grade ≥3, dose-escalation | – | treatment-related decreased appetite | 0% |
| C[C@H]1COC2=C1C(=O)C(=O)c1c2ccc2c1CCCC2(C)C | – | – | saline with 20% PEG400 | 24 h, 25 °C | – | equilibrium solubility | 114 µg/mL |
| Cc1cc([C@@H](C)Nc2ccccc2C(=O)O)c2nc(N3CCC(F)(F)CC3)c(C#N)c(=O)n2c1 | – | – | NOD-SCID mice, HCC1954 xenograft | intraperitoneal, 120 mg/kg once daily, 8 h | – | concentration | 1100 ng/mL |
| Cn1cnc2ccc(Nc3c(F)ccc(NS(=O)(=O)N4CC(F)C4)c3Cl)c(Cl)c2c1=O | – | item: headache any grade | human patients | dose not given, monotherapy trial | reference: patients | patients with headache | 5% |
| O=C(O)Cn1cc2ccccc2n1 | HDAC6 ZnF-UBD domain | – | – | – | – | Kd | > 1 mM |
| NC1(C(=O)N[C@@H](CCO)c2ccc(Cl)cc2)CCN(c2nc[nH]c3nccc2-3)CC1 | – | – | metastatic CRPC patients | dose not given, grade 3 to 4, treatment-related, all doses, with: enzalutamide 160 mg daily | – | incidence of Stomatitis | 0% |
| C[C@H]1O[C@@H](O[C@H]2CC[C@@]3(C)[C@@H](CC[C@]4(C)[C@@H]3C=C[C@]35OC[C@@]6(CCC(C)(C)C[C@H]63)[C@@H](O)C[C@]54C)[C@]2(C)CO)[C@H](O)[C@@H](O[C@@H]2O[C@H](CO)[C@@H](O)[C@H](O)[C@H]2O)[C@H]1O | – | UHPLC-MS/MS | mouse, plasma | oral, 50 mg/kg, 6 h, pooled samples | – | plasma concentration | 1.01 ng/mL and 0.88 ng/mL |
| CC(=O)c1cccc(NC(=O)CSc2nnc(-c3cc4ccccc4cc3O)n2C)c1 | – | – | aqueous buffer | pH 7.4 | – | solubility | < 3.09 µg/mL |
| CCOc1c([C@H](C)n2nc(C)c3c(N)ncnc32)cc(Cl)c(F)c1[C@@H]1CNC(=O)C1 | – | item: QRS ≤100 ms | previously treated B-cell malignancy | oral, 45 mg once daily, baseline below thresholds | – | patients | 100% |
| CC(C)(C)c1ccc(O)c(CN(Cc2cc(C(C)(C)C)ccc2O)C2CCC(NC(N)=O)CC2)c1 (stereo not drawn) | – | – | mouse brain | 5 ng/g, 24 h, 25 °C, short-term storage | – | recovery | 98.27 ± 0.5% |
| Cc1ccc(Sc2ccccc2N2CCNCC2)c(C)c1 | – | item: Nausea | healthy adult men | oral, 5 mg daily, 12 days | – | participants with TEAE | 0% |
| CN1CCN(c2cccc3c2CCN(C(=O)/C=C/c2c(-n4cnnn4)ccc(Cl)c2F)[C@@H]3C(=O)Nc2ccc(C(=O)O)cc2)C(=O)C1 | – | – | healthy human subjects | intravenous infusion, 25 mg/h, 2 h | – | discontinuations due to adverse events | 0% |
| CC1(C)OC[C@@H](C2CCCCC2)N[C@@H]1c1ccc(Cl)c(Cl)c1 | – | shake-flask, LC-HRMS | aqueous buffer | 16 h, pH 6.8 | – | solubility | < 4 µM |

| Structure (SMILES) | target or system | assay | system | conditions | scale | quantity | value |
| --- | --- | --- | --- | --- | --- | --- | --- |
| CNC(=O)c1ccc(-c2cnc3ncc(Cc4ccc5ncccc5c4)n3n2)cc1F | – | item: Anemia, all grades | gastric cancer patients | oral, 600 mg twice daily, expansion cohort, any causality | – | patients with adverse event | 0% |
| Cn1ncnc1[C@H]1c2n[nH]c(=O)c3cc(F)cc(c23)N[C@@H]1c1ccc(F)cc1 | – | – | human patients, plasma | oral, 600 µg/m2 twice daily day 1, day 5, dose level DL4, median, with: temozolomide 30 mg/m2 daily days 2-6 | – | AUCτ | 175 ng·h/mL |
| N#Cc1cccc(-c2ccc3ncc(-c4cc(F)cc(F)c4)c(N4CCC(N)CC4)c3c2)c1O | – | – | healthy male, urine | oral, 20 mg, 72 h, profiled samples | reference: dose | total radioactivity recovered | 3.5% |
| O=C(c1cccnc1-c1ccncc1)N1CCC(O)(Cc2ccccc2)CC1 | – | – | human, plasma | oral, 300 mg, with: itraconazole | – | Cmax at steady state | 2150 ng/mL |
| C=CC(=O)N1CCC[C@@H](n2c(=O)n(-c3ccc(Oc4ccccc4)cc3)c3c(N)nccc32)C1 | – | – | human | oral, 240 mg | reference: fed over fasted | Cmax fed/fasted ratio | 1.18 |
| Cc1ccc([C@@H]2O[C@H](CO)[C@@H](O)[C@H](O)[C@H]2O)cc1Cc1ccc(-c2ccc(F)cc2)s1 | – | – | Japanese type 2 diabetes patients | 100 mg, day 3, 24 h urine collection | reference: baseline | urinary calcium excretion change | -20.2 mg |
| COc1ccc2c(c1)sc(-c1ccc(N(C)C)cc1)[n+]2C | – | – | PBS | free dye | – | Stokes shift | 70 nm |
| COCCOc1cnc2ccn([C@H](C)c3nnc4c(F)cc(-c5cnn(C)c5)cn34)c(=O)c2c1 | – | – | patients, plasma | oral, 400 mg once daily, day 1 | – | Cmax | 3310 ng/mL |
| CC(=O)Nc1ccc([C@H]2COC[C@H](c3ccc(C(C)(C)C)cc3)N2)cc1 | – | shake-flask, LC-HRMS | aqueous buffer | 16 h, pH 6.8 | – | solubility | < 4 µM |
| O=c1[nH]c(=O)n([C@H]2C[C@H](O)[C@@H](CO)O2)cc1CCCC[18F] | – | – | male CD-1 nu/nu mice, RG2 tumour, heart | intravenous, dose not given, 2 h | – | biodistribution | 0.24 ± 0.07 %ID/g |
| CC=CC1CCC(C2CCC(CCC)CC2)CC1 (stereo not drawn) | – | – | rat, placenta | 5000 ng/mL in perfusate, high dose, mixture of 21 LCMs | – | placental accumulation | 353 ± 585 ng/g |
| O=C(O)CCCCCCCCCCCCC(=O)O | – | – | human, plasma | control | – | Cmin | 30 ± 2.6 nM |
| Cc1cccc([C@H]2N[C@@H](c3ccc4ccccc4c3)COC2(C)C)c1 | – | shake-flask, LC-HRMS | aqueous buffer | 16 h, pH 6.8 | – | solubility | < 4 µM |
| Cl.[2H]C([2H])([2H])CC(=O)c1cnc(NC(=O)C2CC2)cc1Nc1cccc(-c2ncn(C([2H])([2H])[2H])n2)c1OC | – | geometric mean | human | oral, 40 mg twice daily, day 7, fed, liquid, multiple dose | – | AUC(0-inf) | 6040 ng·h/mL |
| CCOC(=O)N1C[C@@H](c2ccc(N3CCCC3)cc2)N[C@@H](c2ccc(-c3ccccc3)cc2)C1 | – | shake-flask, LC-HRMS | aqueous buffer | 16 h, pH 6.8 | – | solubility | < 4 µM |
| COc1ccc([C@@H](O)c2cc(-c3ncnc4cc(N5CCOCC5)ccc34)c(F)cc2Cl)nn1 | – | – | locally advanced rectal cancer | all dose levels overall, with: capecitabine and radiotherapy | – | TEAE, investigations | 53% |
| CCC[C@@H](C)[C@H]1COC(C)(C)[C@@H](c2ccc(-c3ccccc3)cc2)N1 | – | shake-flask, LC-HRMS | aqueous buffer | 16 h, pH 6.8 | – | solubility | < 4 µM |
| CCc1cc(C(=O)NC)c2nccc(N3CCc4c(cc(Cn5ccnc5)cc4-c4cn(C)nc4C(F)(F)F)C3=O)c2c1 | – | – | Sprague Dawley rats | oral, 100 mg/kg once daily, 7 days | reference: vehicle | serum RDW change | -4.95% |
| O=C(N/N=C/c1ccccc1O)c1ccncc1 | – | – | DMEM cell medium | 115 µM, 12 h, 5 °C, post-preparative, autosampler | – | stability | 93.4% |
| O=C(O)COc1cnc2ccccc2n1 | HDAC6 ZnF-UBD domain | – | – | – | – | Kd | > 1 mM |
| Cc1coc([C@H]2C[C@H]3[C@@H](CF)SC(N)=N[C@@]3(c3ccc(F)cc3F)CO2)n1 | – | – | male 129/SVE mouse, CSF | subcutaneous, 80 mg/kg, 7 h | – | CSF concentration | 15 nM |

Some of these lines once more:
| Structure (SMILES) | target or system | assay | system | conditions | scale | quantity | value |
| --- | --- | --- | --- | --- | --- | --- | --- |
| N#Cc1cccc(-c2ccc3ncc(-c4cc(F)cc(F)c4)c(N4CCC(N)CC4)c3c2)c1O | – | – | healthy male, urine | oral, 20 mg, 72 h, profiled samples | reference: dose | total radioactivity recovered | 3.5% |
| CCOC(=O)N1C[C@@H](c2ccc(N3CCCC3)cc2)N[C@@H](c2ccc(-c3ccccc3)cc2)C1 | – | shake-flask, LC-HRMS | aqueous buffer | 16 h, pH 6.8 | – | solubility | < 4 µM |
| C[C@H]1O[C@@H](O[C@H]2CC[C@@]3(C)[C@@H](CC[C@]4(C)[C@@H]3C=C[C@]35OC[C@@]6(CCC(C)(C)C[C@H]63)[C@@H](O)C[C@]54C)[C@]2(C)CO)[C@H](O)[C@@H](O[C@@H]2O[C@H](CO)[C@@H](O)[C@H](O)[C@H]2O)[C@H]1O | – | UHPLC-MS/MS | mouse, plasma | oral, 50 mg/kg, 6 h, pooled samples | – | plasma concentration | 1.01 ng/mL and 0.88 ng/mL |
| CC=CC1CCC(C2CCC(CCC)CC2)CC1 (stereo not drawn) | – | – | rat, placenta | 5000 ng/mL in perfusate, high dose, mixture of 21 LCMs | – | placental accumulation | 353 ± 585 ng/g |
